{"data": "Published values collected from several papers", "B1": "enzyme A172S/A173G/A497K/C179K/M174T/Q178P (Streptomyces platensis, UniProt A0A0A0V031); chain MQHTTIGDVLREHRRSHPGRTALVDGPVRLTWPELDDRVNRLAGSLAASGIGRGDRIMWLGQNSFRVYELIAAAGKLGAMVCVGYWRWAPPEMEFALRDFDPHLVVWQHQEIHETVARTREALGSDDTARWLRHDSAPQDPDGYEAFLAAGGLADPDLDIDPDSPVLVLYTSGTSGRPKGSLLSHTNLIAMATAAAWLGDIDHTTAFLNSGPMFHIGNHQFWGMPTLLMAGKNVIVRRVVAEEVRDLLVAEECTHAFLMPPTVAEIVRLNRDTGHDLSRLRATVAPHLWEGMATTDTSRFTRSGAAAGRGYGQTELSGFAVTAAYGGPAAGNAGRPGPGLTVRVLDTAGRECAVGEAGEICARGTVVHRGYWNRDEVNAHRFRSGWWHTTDLGRREPDGSLTFLGTTTRMLKSAAENIFPAEVENCIEQHPAVREAAVIGVPNTRWAQDVKAVVVLEPDAGVSEQEIIDHCRPRIASYKKPKSVAFAAALPRTVSGKRDYDALDKEYGGGGYPGAATLGPGR", "note": "Lines come from different studies, so protocols differ. ± marks the error that the study gave.", "UniProt Q50EL0, sequence (whole entry, looked up)": "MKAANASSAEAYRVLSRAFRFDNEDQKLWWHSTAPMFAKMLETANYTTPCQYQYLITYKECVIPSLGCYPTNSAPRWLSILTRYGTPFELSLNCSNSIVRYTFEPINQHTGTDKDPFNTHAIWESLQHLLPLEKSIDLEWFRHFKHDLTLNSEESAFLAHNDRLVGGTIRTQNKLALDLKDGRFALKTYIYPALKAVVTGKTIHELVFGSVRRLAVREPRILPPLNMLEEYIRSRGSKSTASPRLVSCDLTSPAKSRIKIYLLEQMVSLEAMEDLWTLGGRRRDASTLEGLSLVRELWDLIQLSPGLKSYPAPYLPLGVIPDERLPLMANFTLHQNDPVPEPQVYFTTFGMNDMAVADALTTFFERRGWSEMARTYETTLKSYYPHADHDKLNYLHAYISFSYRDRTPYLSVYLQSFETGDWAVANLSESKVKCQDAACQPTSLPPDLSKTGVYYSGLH", "UniProt P21729, sequence (whole entry, looked up)": "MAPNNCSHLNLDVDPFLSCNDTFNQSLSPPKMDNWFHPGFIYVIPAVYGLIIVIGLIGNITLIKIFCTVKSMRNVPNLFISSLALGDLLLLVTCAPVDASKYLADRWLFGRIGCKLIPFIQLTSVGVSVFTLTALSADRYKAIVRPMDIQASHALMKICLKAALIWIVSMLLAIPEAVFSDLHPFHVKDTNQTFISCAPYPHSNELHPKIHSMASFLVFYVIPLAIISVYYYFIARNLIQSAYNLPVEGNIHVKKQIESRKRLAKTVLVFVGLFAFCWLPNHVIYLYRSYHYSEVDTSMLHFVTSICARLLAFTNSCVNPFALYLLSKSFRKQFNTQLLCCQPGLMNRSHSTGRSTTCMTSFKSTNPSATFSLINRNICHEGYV"}
{"Molecule": "N=C(N)NCCC[C@@H]1NC(=O)[C@H](CCCCNC(=O)CCOCCOCCOCCOCCNC(=O)CC[C@H](NC(=O)CCOCCOCCOCCOCCNC(=O)CC[C@H](NC(=O)CN2CCN(CC(=O)O)CCN(CC(=O)O)CCN(CC(=O)O)CC2)C(=O)NCCOCCOCCOCCOCCC(=O)N[C@@H](CCC(=O)NCCOCCOCCOCCOCCC(=O)NCCCC[C@@H]2NC(=O)[C@@H](Cc3ccccc3)NC(=O)[C@H](CC(=O)O)NC(=O)CNC(=O)[C@H](CCCNC(=N)N)NC2=O)C(=O)NCCOCCOCCOCCOCCC(=O)NCCCC[C@@H]2NC(=O)[C@@H](Cc3ccccc3)NC(=O)[C@H](CC(=O)O)NC(=O)CNC(=O)[C@H](CCCNC(=N)N)NC2=O)C(=O)NCCOCCOCCOCCOCCC(=O)NCCCC[C@@H]2NC(=O)[C@@H](Cc3ccccc3)NC(=O)[C@H](CC(=O)O)NC(=O)CNC(=O)[C@H](CCCNC(=N)N)NC2=O)NC(=O)[C@@H](Cc2ccccc2)NC(=O)[C@H](CC(=O)O)NC(=O)CNC1=O [indium-111 labelled]", "system": "athymic nude mice, female, U-87 MG glioma xenograft, tumour and blood", "setting": "intravenous, 24 h", "scale": "reference: tumour over blood", "endpoint": "tumour to tissue ratio", "value": "56.5 ± 10.8"}
{"Molecule": "B1", "target or system": "C[C@@]12CCC[C@@](C)(C(=O)OP(=O)(O)OC[C@H]3O[C@@H](n4cnc5c(N)ncnc54)[C@H](O)[C@@H]3O)[C@H]1C[C@@H](O)[C@]13C[C@H]4C[C@H](O[C@@]4(C)C1)[C@@H]23", "test": "steady-state kinetics", "setting": "pH 7.8, 25 °C", "endpoint": "kcat", "value": "14 s⁻¹"}
{"Molecule": "C=Cc1c(C)c2cc3nc(c4c5[nH]c(cc6nc(cc1[nH]2)C(C)=C6CC)c(C)c5C(=O)C4)[C@@H](CCC(=O)NCC(=O)N1CCC[C@H]1C(=O)N[C@@H](CC(C)C)C(=O)NCC(=O)N[C@@H](Cc1ccccc1)C(=O)N[C@@H](CCCNC(=N)N)C(=O)N[C@H](C(=O)NCC(=O)N[C@@H](CCCCN)C(N)=O)C(C)C)[C@@H]3C", "target or system": "OA patient chondrocytes", "test": "flow cytometry, refers to: cellular uptake", "setting": "1 µM, 24 h", "endpoint": "fluorescent cells", "value": "92 ± 3%"}
{"Molecule": "dmaW (Aspergillus fumigatus, UniProt Q50EL0)", "target or system": "O=P(O)(O)OP(=O)(O)OCC=C1CCCCC1", "test": "steady-state kinetics", "setting": "pH 7.5, 35 °C", "endpoint": "kcat/Km", "value": "36.7 ± 6.67 M⁻¹ s⁻¹"}
{"Molecule": "N=C(N)NCCC[C@@H]1NC(=O)[C@H](CCCCNC(=O)CC[C@H](NC(=O)CCOCCOCCOCCOCCNC(=O)CN2CCN(CC(=O)O)CCN(CC(=O)O)CCN(CC(=O)O)CC2)C(=O)NCCCC[C@@H]2NC(=O)[C@@H](Cc3ccccc3)NC(=O)[C@H](CC(=O)O)NC(=O)CNC(=O)[C@H](CCCNC(=N)N)NC2=O)NC(=O)[C@@H](Cc2ccccc2)NC(=O)[C@H](CC(=O)O)NC(=O)CNC1=O [indium-111 labelled]", "system": "athymic nude mice, female, U-87 MG glioma xenograft, tumour and blood", "setting": "intravenous, 72 h", "scale": "reference: tumour over blood", "endpoint": "tumour to tissue ratio", "value": "53.2 ± 6.41"}
{"Molecule": "CC[C@H](C)[C@H](NC(=O)[C@H](CCCCN)NC(=O)[C@H](C)NC(=O)CNC(=O)[C@H](C)NC(=O)[C@H](CCCCN)NC(=O)[C@H](CC(C)C)NC(=O)[C@H](CCCNC(=N)N)NC(=O)[C@H](Cc1ccccc1)NC(=O)[C@H](CC(N)=O)NC(=O)[C@H](Cc1ccccc1)NC(=O)[C@@H](N)CSCCC(=O)c1ccc2cc(N(C)C)ccc2c1)C(=O)N[C@@H](CCCNC(=N)N)C(=O)N[C@@H](Cc1ccccc1)C(=O)NCC(N)=O", "target or system": "HeLa", "test": "MTT", "setting": "up to 10 µM, up to 1 h, serum-free", "endpoint": "viability", "value": "~65%"}
{"Molecule": "CCCNC(=O)[C@H](CC(C)C)NC(=O)[C@H](Cc1c[nH]cn1)NC(=O)CNC(=O)[C@@H](NC(=O)[C@H](C)NC(=O)[C@H](Cc1c[nH]c2ccccc12)NC(=O)[C@H](CCC(N)=O)NC(=O)[C@@H](Cc1ccccc1)NC(=O)CCCCCNC(=O)CN1CCN(CC(=O)O)CCN(CC(=O)O)CCN(CC(=O)O)CC1)C(C)C [indium-111 labelled]", "target or system": "Gastrin-releasing peptide receptor (Mus musculus, UniProt P21729)", "test": "biodistribution", "system": "CF-1 mice, spleen", "setting": "intravenous, 1 h, with: bombesin 100 µg, blocking", "endpoint": "tissue uptake", "value": "0.11 ± 0.04 %ID/g"}
{"Molecule": "C[C@H]1COc2c(N3CCN(C)CC3)c(F)cc3c(=O)c(C(=O)N[C@@H](CCCNC(=N)N)C(=O)N[C@@H](Cc4ccc(-c5ccccc5)cc4)C(=O)N[C@@H](CCCNC(=N)N)C(=O)N[C@@H](Cc4ccc(-c5ccccc5)cc4)C(=O)N[C@@H](CCCNC(=N)N)C(N)=O)cn1c23", "target or system": "human erythrocytes", "setting": "25 µM, 1 h, 37 °C", "scale": "reference: Triton X-100", "endpoint": "hemolysis", "value": "0.97 ± 0.008%"}
{"Molecule": "CCCC[C@H](NC(=O)CCCCCCCNC(=O)c1ccc(NN)nc1)C(=O)N[C@H]1CC(=O)NCCCC[C@@H](C(N)=O)NC(=O)[C@H](Cc2c[nH]c3ccccc23)NC(=O)[C@H](CCCNC(=N)N)NC(=O)[C@@H](Cc2ccccc2)NC(=O)[C@H](Cc2c[nH]cn2)NC1=O [technetium-99m labelled]", "system": "C57 mouse, B16/F1 melanoma, heart", "setting": "intravenous, 4 h", "endpoint": "uptake", "value": "0.13 ± 0.09 %ID/g"}
{"note": "For quick reference, copied from above:"}
{"Molecule": "C[C@H]1COc2c(N3CCN(C)CC3)c(F)cc3c(=O)c(C(=O)N[C@@H](CCCNC(=N)N)C(=O)N[C@@H](Cc4ccc(-c5ccccc5)cc4)C(=O)N[C@@H](CCCNC(=N)N)C(=O)N[C@@H](Cc4ccc(-c5ccccc5)cc4)C(=O)N[C@@H](CCCNC(=N)N)C(N)=O)cn1c23", "target or system": "human erythrocytes", "setting": "25 µM, 1 h, 37 °C", "scale": "reference: Triton X-100", "endpoint": "hemolysis", "value": "0.97 ± 0.008%"}
